Assay results pooled from the literature.
A part holds a random share of what one study measured.

Series 1 — method: universal PBM; form: double-stranded DNA, one strand shown; sample: in vitro; tested at: not given; reading: higher = stronger binding
Target: Sal-like protein 4, full length isoform B (SALL4, Homo sapiens, UniProt Q9UJQ4-2, residues 1-616)
Notes: 8-mer, flanks averaged, mean of replicates
Construct (chain): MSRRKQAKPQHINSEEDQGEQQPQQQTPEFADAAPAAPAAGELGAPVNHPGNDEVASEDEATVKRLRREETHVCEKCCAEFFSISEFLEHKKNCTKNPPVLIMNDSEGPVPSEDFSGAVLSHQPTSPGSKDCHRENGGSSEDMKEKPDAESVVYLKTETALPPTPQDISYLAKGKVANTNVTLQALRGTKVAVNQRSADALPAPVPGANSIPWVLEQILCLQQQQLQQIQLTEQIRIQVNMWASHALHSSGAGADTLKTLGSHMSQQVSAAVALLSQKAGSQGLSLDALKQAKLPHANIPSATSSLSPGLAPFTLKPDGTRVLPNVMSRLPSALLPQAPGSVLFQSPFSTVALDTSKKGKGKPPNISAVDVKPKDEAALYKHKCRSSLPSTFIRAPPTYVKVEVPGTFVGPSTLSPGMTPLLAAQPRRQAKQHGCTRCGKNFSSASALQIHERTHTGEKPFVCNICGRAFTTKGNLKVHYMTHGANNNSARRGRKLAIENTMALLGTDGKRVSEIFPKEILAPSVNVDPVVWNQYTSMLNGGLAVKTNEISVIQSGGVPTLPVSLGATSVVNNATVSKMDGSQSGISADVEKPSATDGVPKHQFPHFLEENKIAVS
Strand | E-score
AGCCAAGA | 0.106
AATCCACG | 0.0266
CCCCATGC | -0.158
CCTCACGA | -0.177
GACCTTAA | 0.00367
AGCGCGTC | -0.212
AAGTCCGT | -0.117
GATCGCTA | -0.162
ATGCACGC | 0.0696
GAAGTGCC | -0.132
ACATGCGC | -0.0837
ACTGCATC | -0.0478
ACTCGTGA | -0.0217
CTCAGCTA | -0.0253
AGATTGGA | 0.0693
CCGGCCAG | -0.423
AAGCCGTC | -0.2
CGAGAACC | -0.127
ATCGAATA | 0.216
ACATGCAG | 0.0707
ATACCACC | 0.0513
AATAGATT | 0.286
AGACACCG | -0.216
GCATCCTA | -0.031

Series 2 — method: RNA Bind-n-Seq; form: RNA; sample: in vitro; tested at: 365 nM; baseline: no-protein control; reading: higher = stronger binding
Target: RNA binding protein fox-1 homolog 2, RRM domain, GST-SBP tag (RBFOX2, Homo sapiens, UniProt O43251-10, residues 100-194)
Notes: natural RNA segment, single round, ends assumed
Constant ends, left off below: GGGAGUUCUACAGUCCGACGAUC … UGGAAUUCUCGGGUGCCAA
Target sequence (chain): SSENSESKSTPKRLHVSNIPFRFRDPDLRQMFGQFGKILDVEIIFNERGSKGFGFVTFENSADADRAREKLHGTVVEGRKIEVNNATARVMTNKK
Strand | RBNS enrichment (R)
CUCUACCUCCUCCUUUCCCAAUUAAUUUCAACCAUAGUACGAUGUUUGGGGUUGUAUAUUUUGUUAAAAAGAUUAAAGAAUUUAUGAGUUGGCUUGGACAAGUUUAACUU | 0.962
UGCCAGGUCUGCCUAGCGUUUACCACUGUUGUUAAGCCACAGCCCUUGGCCACCACAUGGCCAUCCUCAGUGAGGCGCCAUGAACCCUUCUUAGGCCCUCAGGUCCCCAU | 0.183
CUACAUAUCACGUGUGAGACAACUUCUUUCACAUCUCCAUAGUGCCCAGCAAAUUUGAGGCCUAUGGUAGUUGAGGUGCUCAACUAAUGUUUGUUGUAUGAACCAAGUGG | 0.3
AAGAUGUGUAUAUCGACACUAGGUCAGAAAGUGUAUGCGUUAUAAUAAAGUUCUGGUUCUAACUCCAGCCUGAGUGGGGUCCAUUCUGUCAUGUUUGUUGGGUACGGGUU | 2.28
ACAGAACAAAGCCAUUCACAAGUGACCGACAGCACGUGCCGUGAGACGGGAGGUGGCUGCAGGAAGAGGAUGCCUCAGGGAUGCCGGACAUUUCCGUGUUCUAUUCCAGA | 0.5
UGGUUGGGAGUGGUGCCAGUUGAACAGCAGAUUCUGCUUCUUGUCACUGUUUCAAAAGCGUCAACUCUGUGUUCCUAGUUUCGAUGAACUCCCCAUUCAUUUUUAACACA | 0.873
ACAUUUCUCUAUUUUUUGAAAUACAAUUGCAAUAACUUCAGUCUUUUUACAUUCUUCUGCUGCAUCCAUACAAUGCUCCACUGCUGUUGAGUGUCCUUUAACUGUGGACC | 0.269
UUUUAAGUGAGGAUAUCUACUGUCUGCUUCAUAGGGUGCUUUGCAAUAAAAUGAAAACGUAUUUAUACUGUUUUUACUAAGGUAACAAAAGCAUGAUAAUCCUUUUUUUU | 0.937
CUGCAAUGUAGGUCUCCUUCCUGUGCAGUGUAACAUGUAUCCCGUUGCCUGUUGUUCGGUUGUGUGACUAAUUGUGGAUUUUAAGCUGCUAUUAUUGUAUUUCAGUGGCA | 1.8
AAUUAUUGGCUGAGCCCACGGUCCCCUCAGCAGGGAUGCGAUGGUCUCUGAAUCAGUGUGCAGCUGGGGUCCCAGGCAGCGCUGCCUGGGGGCUGGGGAGGGGAGGCCCA | 0.531
CAUCUUUUUUAUUAUAAUUUAUUGCAAAUUUUUUUCUGAAUAAAUAUAUGUUGUGUGAAAAAGCAAAGUGUGAUUUUGGUGAGGAAGCACUCAGAAGGGAGGGCUUAUGU | 1.29
CUCAGCCCAACCCCCUGCUUCCUGUUGGCUUUUGGGUAGCACUUGCCAUUAACAACAGCAGCCUAGAACUGACGCUUUAGUGGCCCGUCUGCAGAGCCAAAUCUUGCUCU | 15.1

Series 3 — method: protein-binding microarray; form: double-stranded DNA, one strand shown; sample: in vitro; tested at: 250 nM; notes: 60-bp whole probe; together with: salmon DNA 0.4 mg/ml; baseline: random background probes; reading: higher = stronger binding; constant ends, left off below: GCCTAGCAC … GTCTTGATTCGCTTGACGCTGCTG
Target: Interferon regulatory factor 5, full length, phosphomimetic (IRF5, Homo sapiens, UniProt Q13568-2, residues 1-514, K96S/S451D/S453D/S456D/S462D)
Strand | log fluorescence
GACGGTTTACTTTTCCTGACGTGCTAG | 0.594 z-score
GACGGTTCCCTTTTCCGGACGTGCTAG | 0.097 z-score
AATATTATAACACTCTTCTTGTGCTAG | 0.808 z-score
TTAGGAATGGGGTTTCGGTTAGTGCTA | 7.31 z-score
GACGATTTCAGTATCGGGACGTGCTAG | 3.73 z-score
TTATGTTTCGGTTCCGGTTAGTGCTAG | 10.4 z-score
GACGATGTCAGTTTCGAGACGTGCTAG | 4.78 z-score
TCATACATGGGTTTTCAGACTGTGCTA | 0.357 z-score
GACGGTTCCGGTGTCGGGACGTGCTAG | 0.363 z-score
TTAGATATCGGGTACCGATTAGTGCTA | 2.57 z-score
GACAATTCCAGTTTCGAGACGTGCTAG | 6.28 z-score
GACGTACTGCTACTGCTGACGTGCTAG | -0.432 z-score
GACGGTCTCCTGCTGCTGACGTGCTAG | -0.348 z-score
TCATATATCTGTGTTATACTGTGCTAG | 0.806 z-score
AGGACCATCCCTTATAAATAGGTGCTA | -0.332 z-score
CTTCCTTTACTTTCTTTTTTGTGCTAG | 2.78 z-score
GACGGTATCCTCTTCCTGACGTGCTAG | -0.151 z-score
GACGAACTGGACTATCGGGACGTGCTA | 0.736 z-score
TTAGGTATGGGTTTCGGTTAGTGCTAG | 7.89 z-score
GACGGTATCCTTCTCCCGACGTGCTAG | 0.309 z-score
GACGATTTCAGTATCTAGACGTGCTAG | 1.76 z-score
CATTCTCTGCTTCTGTATGGGTGCTAG | 0.524 z-score
CCTCTTTTTTGTTCCACGCCGTGCTAG | 0.786 z-score

Series 4 — method: RNA Bind-n-Seq; form: RNA; sample: in vitro; tested at: not given; baseline: input RNA pool; reading: higher = stronger binding
Target: RING finger protein unkempt homolog, zinc fingers 1-6, GST-SBP tag (UNK, Homo sapiens, UniProt Q9C0B0, residues 30-357)
Notes: RNA with constant flanks, human and mouse sites, ends assumed
Constant ends, left off below: GGGAGUUCUACAGUCCGACGAUC … CAACAGAGGAUUGAGCAUCA
Target sequence (chain): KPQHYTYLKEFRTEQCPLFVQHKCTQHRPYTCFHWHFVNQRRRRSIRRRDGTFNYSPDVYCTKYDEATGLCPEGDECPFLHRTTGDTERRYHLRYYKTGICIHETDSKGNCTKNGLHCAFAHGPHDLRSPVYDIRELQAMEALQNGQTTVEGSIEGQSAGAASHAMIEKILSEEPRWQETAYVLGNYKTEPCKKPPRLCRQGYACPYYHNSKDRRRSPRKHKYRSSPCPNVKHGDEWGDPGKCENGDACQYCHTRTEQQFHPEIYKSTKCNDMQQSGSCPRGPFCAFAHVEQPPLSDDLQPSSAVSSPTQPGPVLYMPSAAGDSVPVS
Strand | bound/input enrichment [ratio]
GACCUUGAGCAGAAUGAAACAUUAGAAAGCAUCAUGAGUACUGCUGAGAGUGAAGAAGAAUUGAAAAGAUAUUUUUAUUACUUGGAGGGAUCCAAAGAUGCUCUUCUUUGCGGUUUCAGC | 0.588
UCUGAGGAAAAGGGACACCCCCAGGAGGAAUCUGAGGAGUCAAACGUCAGCAUGGCCAGUUUAGGGGAAAAGAGGGACCACCAUUCAACCCACUACAGGGCUUCAGAGGAAGAACCUGAA | 0.233
AACUUAAUCCAGAGUUACUUGUAGCUCCUCAGAGUCUUCUUAGUCUGGGCUGCCCUGACCAUGGAUGGAGCAUCAGCCAAACAGGAUGGCCUCUGGGAAAGCAAGUCCAGCAGUGAUGUU | 0.251
CAAGGUGUGCCGAAGGAGAAGCUCACUGGCACAAUUCAGAAUGACAUCCUAAAGGAGUUUAUGGUCAGAAAUACUUAUAUUUUUCCCCCAGAGCCAUCGAUGAAAAUUAUUGCUGACAUU | 0.183
UCUCCUGUAAUCACUUUUGGAGGGCUGCUUGGAGAAGCUACAGAAGGCAGAAUAAGUGCAAUAGAGUCUCUUUUUGGAGCAUCAUUAACUGGGAUUGCCUAUUCAUUGUUUGCUGGGCAA | 0.229
GUCCCAAACAUCUCUGUCCACCUGCGACACGAGCCCCCUGCUCUAAUGAAUGAGAUGUACUGUUUGGUUGUCACUGUUCAGUCCCACGAGAAGUCCCCAAUCAGGGAUGUGAAGCUCACU | 0.084
CCAUCACAGAUUUCAGUAAUGCAGCAGUUGGAGGAUGGUGGCCCUGACCCACUUGUAUUUGUUUUAAAUGCAAAUUUGUUGUCAAUGGUUAAAAUUGUAAAUUAUGUGAACAGGAAGUGC | 0.262
CUCAAAGAAUUGCUUUCUUGGAAAGUUUUGAGCACAGAAGACUAUACAACCUGUUUUUCUAGCAGAAAUUUUCUAAAUGAAGCAGUGGACUAUGUUAUUCGCCACUUGAUUCAAGAAAAU | 0.148
GGAAUCGUCACUCGUGUCUCUGAAGUCAAACCCAAGAUGGUGGUGGCCACUUACACUUGUGACCAGUGUGGGGCAGAGACCUACCAGCCGAUCCAGUCUCCCACUUUCAUGCCUCUGAUC | 0.0435
AUACCUCCAGAGAGCAGACUGUAUACUAUGCCAAAGCAUUCUCUAAAGACUUGCCAAGAGCUGUAGAAAUUCUUGCUGAUAUAAUACAAAACAGCACAUUGGGAGAAGCAGAGAUUGAAC | 0.267
CUCAAAGUGGAAGAGGUGGUCACUAAAUGCAAAAUAAAGAUGGAAGAUUUUGCUUUUAUUGCUAAUCCUUCUUCUACAGAGAUAUCUAGUAUUACUGGAAACAUUGAAUUGAAUCAACAG | 0.227
